# Assay results collected from several papers.
# Numbered parts are unrelated; each lists some results of a single study.

# Study 1 — cell line: HEK-293T-ACE2-TMPRSS2; method: cell count; tested at: concentration not given
Compound,viability [%]
COc1ccc(CNC(=O)C2(C)Cc3ccccc3C(=O)N2Cc2cccc(Cl)c2)cc1 (stereo not shown),69
CC(C)c1ccc(NC(=O)c2cn3c(n2)CCCC3)cc1,71
CC(C)c1cc(C(=O)NCc2noc(-c3cccs3)n2)n(C)n1,65
CCOc1cccc(N2C(=O)CC(N3CCC(C(N)=O)CC3)C2=O)c1 (stereo not shown),82
Clc1ccc(-c2noc(CN3CCN(c4ncnc5ccccc45)CC3)n2)cc1,81
COc1ccc(CNC(=O)c2scc(-c3cccc(C)c3)c2-n2cccc2)cc1OC,69
CCN1CCN(Cc2ccc(NC(=O)c3cc4c(C)nn(-c5ccc(Cl)cc5)c4s3)cc2)CC1,81
Cc1cccc(-c2nnc(-c3nc(NCCCN4CCCC4=O)c4ccccc4n3)o2)c1,77
Cc1noc(C)c1CCC(=O)NC1CC(=O)N(C2CCCCCC2)C1 (stereo not shown),110
C[C@@H]1CC(=O)NN=C1c1ccc(NN=C(C#N)C#N)cc1,132
Cc1cc(C(=O)N(Cc2ccccn2)C2CC2)sc1C,68
COCCCN1CN(c2cc(Cl)cc(Cl)c2)c2nc(C)c(C)c(=O)n2C1,75
CC(C)c1cc(C(=O)NCc2ccccc2CN2CCCC2=O)n(C)n1,71
CN(C)c1ccc(C2NC(=O)c3ccccc3N2)cc1[N+](=O)[O-] (stereo not shown),104
Cc1cc(C)cc(NC(=O)N2c3ccccc3CC2c2noc(C3CCOCC3)n2)c1 (stereo not shown),73
Cc1cccc(NC(=O)c2cc3cc(N(C)S(=O)(=O)c4ccccc4)ccc3s2)c1,67
Cc1nc(C)c(C(=O)N2CCN(C(=O)c3nc(-c4ccc(N5CCC(C)CC5)cc4)no3)CC2)s1,68
O=C1CN(c2ncnc3sc4c(c23)CCCCC4)CCN1,100
Cc1cc2nc3n(c2cc1C)C(O)C=C(C(C)(C)C)S3 (stereo not shown),103
N#Cc1ccc(C(=O)Nc2nc3c(s2)CN(Cc2ccccc2)CC3)cc1,75
CC(=O)N1CCCSc2ccc(S(=O)(=O)NCCCN3CCC(C)CC3)cc21,93
O=C(CN(Cc1ccco1)S(=O)(=O)c1ccccc1F)Nc1ccc(N2CCCCC2)cc1,97
Cc1cc(C)n(-c2ccc(Cn3ncc(Cl)c(Cl)c3=O)cc2)n1,71
CC(=O)N1CCSc2ccc(S(=O)(=O)N3CCN(CCOc4ccc(Cl)cc4)CC3)cc21,74
COCC1CCCCN1c1nc2nonc2nc1NCc1cccs1 (stereo not shown),107

# Study 2 — cell line: HEK-293T; read-out: pseudovirus infection; method: FDA-approved drug library counter-screen; organism: VSV pseudotyped with VSV-G; tested at: 10 µM; time: 16 h; relative to: vehicle-treated
Compound,GFP-positive cells
CCC1(C)CC(=O)NC1=O (stereo not shown),87.3%
CCCCCCCCCC(=O)O[C@H]1CC[C@H]2[C@@H]3CCC4=CC(=O)CC[C@@H]4[C@H]3CC[C@]12C,116%
CC(C)c1nc(CN(C)C(=O)N[C@H](C(=O)N[C@@H](Cc2ccccc2)C[C@H](O)[C@H](Cc2ccccc2)NC(=O)OCc2cncs2)C(C)C)cs1,80.6%
CN1CCC(=C2c3ccccc3CCc3cccnc32)CC1,103%
CCn1cc(C(=O)O)c(=O)c2ccc(C)nc21,95.2%
O=C(c1ccc(F)c(F)c1Nc1ccc(I)cc1F)N1CC(O)([C@@H]2CCCCN2)C1,145%
CC(C)[C@H]1CC[C@H](C(=O)N[C@H](Cc2ccccc2)C(=O)O)CC1,91.7%
C=C(c1ccc(C(=O)O)cc1)c1cc2c(cc1C)C(C)(C)CCC2(C)C,84%
CCC1(c2ccccc2)C(=O)NCNC1=O,111%
CC(c1cc2ccccc2s1)N(O)C(N)=O (stereo not shown),87.8%
COCCOC(=O)C1=C(C)NC(C)=C(C(=O)OC(C)C)C1c1cccc([N+](=O)[O-])c1 (stereo not shown),71.1%
CC(C)N1CCN(c2ccc(OCC3COC(Cn4cncn4)(c4ccc(Cl)cc4Cl)O3)cc2)CC1 (stereo not shown),75.7%
CN(C)CCCC1(c2ccc(F)cc2)OCc2cc(C#N)ccc21 (stereo not shown),101%
CC(C)Cn1cnc2c(N)nc3ccccc3c21,115%
COC(=O)N[C@H](C(=O)N1CCC[C@H]1c1nc(-c2ccc(-c3ccc(-c4c[nH]c([C@@H]5CCCN5C(=O)[C@@H](NC(=O)OC)C(C)C)n4)cc3)cc2)c[nH]1)C(C)C,105%
C[C@@H](c1nc(-c2ccc(C#N)cc2)cs1)[C@](O)(Cn1cncn1)c1cc(F)ccc1F,80.1%
COC(=O)c1ccccc1O,114%
Cn1c(=O)c2[nH]cnc2n(C)c1=O,121%
O=S(=O)(O)Oc1ccc(C(c2ccc(OS(=O)(=O)O)cc2)c2ccccn2)cc1,108%
NC(=O)OCC(COC(N)=O)c1ccccc1,105%
CC(=O)O[C@H]1C[C@@H]2CC[C@@H]3[C@H](CC[C@@]4(C)[C@H]3C[C@H]([N+]3(C)CCCCC3)[C@@H]4OC(C)=O)[C@@]2(C)C[C@@H]1[N+]1(C)CCCCC1,103%
C#C[C@]1(O)CC[C@H]2[C@@H]3CCc4cc(O)ccc4[C@H]3CC[C@@]21C,80.1%
CCN(CCO)CCCC(C)Nc1ccnc2cc(Cl)ccc12 (stereo not shown),80.5%
COC[C@@H](NC(C)=O)C(=O)NCc1ccccc1,101%
Cc1cc2nc3c(=O)[nH]c(=O)nc-3n(C[C@H](O)[C@H](O)[C@H](O)CO)c2cc1C,74.1%

# Further values, each from its own experiment
SMILES,target or system,assay,test system,setting,measurement,value
COc1ccc(-c2c(Nc3ccccn3)[nH]c3c(C4=CCCCC4)c(-c4ccccc4)nn3c2=O)cc1,,,patients with advanced malignancies,"oral, dose not given, treatment-emergent adverse events",grade 3 tumour pain incidence,5%
CNC(=O)c1ccc(-c2cnn3ccc(C(=O)N(C)c4ccc(Cl)c(C(=O)OC)c4)cc23)cc1,Cryptosporidium parvum,time-kill,nanoluciferase-expressing,9.15 nM,kill half-life,15.7 h

# Repeated from above (study 1):
Compound,viability [%]
CCN1CCN(Cc2ccc(NC(=O)c3cc4c(C)nn(-c5ccc(Cl)cc5)c4s3)cc2)CC1,81
Cc1cc(C(=O)N(Cc2ccccn2)C2CC2)sc1C,68
O=C1CN(c2ncnc3sc4c(c23)CCCCC4)CCN1,100
O=C(CN(Cc1ccco1)S(=O)(=O)c1ccccc1F)Nc1ccc(N2CCCCC2)cc1,97
CC(C)c1cc(C(=O)NCc2ccccc2CN2CCCC2=O)n(C)n1,71
COCCCN1CN(c2cc(Cl)cc(Cl)c2)c2nc(C)c(C)c(=O)n2C1,75
Cc1cc(C)n(-c2ccc(Cn3ncc(Cl)c(Cl)c3=O)cc2)n1,71
